Published values pooled from the literature.
Every numbered part comes from another study and shows a few of its results, in no order.

Block 1 — technique: RNA Bind-n-Seq; molecule type: RNA; sample: in vitro; tested at: 200 nM; notes: whole 134-nt RNA, ends assumed; added: 150 mM KCl; reference: input library; reading: higher = stronger binding
Target: Fragile X messenger ribonucleoprotein 1, C-terminal low-complexity region (Fmr1, Mus musculus, UniProt P35922)
Constant ends, left off below: GGGAGUUCUACAGUCCGACGAUC … UGGAAUUCUCGGGUGUCAAGG
The log2 enrichment of `CUCAAGUCCUGUGCUACACAUCGUAUGUACCGAAUCGGGAAGGAAGGAAGGGGAAAGUAUUAUGUUACGCCGUUCGGAUCUGCACUUCCA` is reported as 0.0876.
The log2 enrichment of `UGGCCCUGGUGGCAUGCGGGGAGGAAGAGGUGGCCUCAUGGAUCGUGGUGGUCCGGGUGGAAUGUUCAGAGGUGGCCGUGGUGGAGACAG` is reported as 0.125.
For `ACCAUGCAGGUGGGCAUCUUUCGGAAGUGGGGCAAGGGGGGGAUAGGGAGGGGGGUAACACUUUGGGAACAGGUGGUCCCAGGUCGUUUC`, the log2 enrichment was 1.09.
With `AAGUCCUGUGCUACACAUCGUAUGUACCGAAUCAAAUUUAAACCCAAACCCCCAAAAAAGUAUUAUGUUACGCCGUUCGGAUCUGCACUU` the log2 enrichment was -0.341.
`CCUGUGCUACACAUCGUAUGUACCGAAUCGGGGAAAAAAGGGAAAAAAGGGGAAAAAAGGAAAGUAUUAUGUUACGCCGUUCGGAUCUGC` gave a log2 enrichment of -0.317.
With `CAAGUCCUGUGCUACACAUCGUAUGUACCGAAUCGGGUUUGGGUUUGGGGUUUGGAAAGUAUUAUGUUACGCCGUUCGGAUCUGCACUUC` the log2 enrichment was -0.0919.
`UGGCCCUGGUGGCAUGCGGGGAGGAAGAGGUGGCCUCAUGGAUCUUGGUGGUCCCGGUGGAAUGUUCAGAGGUGGCCGUGGUGGAGACAG` gave a log2 enrichment of 0.0302.
`CAAGUCCUGUGCUACACAUCGUAUGUACCGAAUCGGUUUUUGGUUUUUUUGGUGGAAAGUAUUAUGUUACGCCGUUCGGAUCUGCACUUC` gave a log2 enrichment of -0.594.
For `UGAUGGGACAACACCCGAAAGGAUAGCACAAAUAACAGGACCUCCAGACCGAUGUCAACAUGCUGCAGAAAUUAUUACAGACCUUCUUCG`, the log2 enrichment was 0.312.
`AGUCCUGUGCUACACAUCGUAUGUACCGAAUCGGGGUUUUGGGUUUUGGGGUUUUGGGAAAGUAUUAUGUUACGCCGUUCGGAUCUGCAC` gave a log2 enrichment of 0.626.
`GCAGGAAGUAAAAACAAAUGGAAAUGCUUCGGAUAGUGGCAGGGGUGGGGGUUGCUAAGGUAAGGGUGGGAUGGGAGUGGGUAAAGAGUU` has a log2 enrichment of 0.281.
With `GCAGGAAGUAAAAACAAAUGGAAAGGCUUCGGAUAGUGGCAGGGGUGGGGGUUGCUAAGGAAAGGGUGGGAUGGGAGUGGGUAAAGAGUU` the log2 enrichment was -0.0333.
The log2 enrichment of `ACCAUGCAGGUGGGCAUCUUUGGGAAGUGGGGCAAGGGGGGGAUAGGGAGGGGGGUAACACUUUGGGAACAGGUGGUCCCAGGUCGAAAC` is reported as 0.66.
For `UUCACAGCCAGCAGGCAUUGGAAUAUGGCACCAAACUCGUUGGAGGAACCACUCCAGGGAAAGGAGGCCAGACACAUCUGGGCUUACCUG`, the log2 enrichment was -0.342.

Block 2 — technique: protein-binding microarray; molecule type: double-stranded DNA, one strand shown; sample: in vitro; tested at: 0.8 µM; notes: whole 60-bp probe, no competitor; reading: higher = stronger binding; constant ends, left off below: … GTCTTGATTCGCTTGACGCTGCTG
Target: Centromere-binding protein 1, full length, N-terminal tag (CBF1, Saccharomyces cerevisiae, UniProt P17106, residues 1-351)
Chain of UniProt P17106 (whole entry, looked up): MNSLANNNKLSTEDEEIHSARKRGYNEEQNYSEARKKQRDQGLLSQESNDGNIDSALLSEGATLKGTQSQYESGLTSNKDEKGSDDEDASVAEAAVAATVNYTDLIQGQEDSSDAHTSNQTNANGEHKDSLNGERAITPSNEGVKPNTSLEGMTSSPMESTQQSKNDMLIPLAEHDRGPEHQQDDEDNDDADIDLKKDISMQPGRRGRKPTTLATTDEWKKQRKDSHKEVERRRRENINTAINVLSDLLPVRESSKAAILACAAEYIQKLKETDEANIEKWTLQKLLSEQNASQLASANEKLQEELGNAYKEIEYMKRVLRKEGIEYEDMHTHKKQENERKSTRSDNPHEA
The fluorescence intensity of `GAATTTCTTAGCGAGGACGTGCTTCTCCAGCGATAG` is reported as 583 a.u.
With `GAAGTCATTGCTGATCACATAAACAAGATTCAATAG` the fluorescence intensity was 613 a.u.
The fluorescence intensity of `CTAGTATTTTTCCACCACGAACCGTAGATGGCTTTC` is reported as 551 a.u.
With `GAATCATCATTTAATCATGATGATAATATTGATTAG` the fluorescence intensity was 547 a.u.
For `GAATTACAACTATAATGCATGACATGATGAATATAG`, the fluorescence intensity was 586 a.u.
`GAAGCCCCGATAATCCACATGATCATAAGGTCGTAG` has a fluorescence intensity of 1230 a.u.
The fluorescence intensity of `GAATTCAATTTCGACTGCATGATGCTTTTCTTATAG` is reported as 576 a.u.
With `CTAATCCCTATACCAGGTGAGTTGATATATATTTTC` the fluorescence intensity was 531 a.u.
`GAATAATAAAACATAAACGTGATGCTTTTACCATAG` gave a fluorescence intensity of 1200 a.u.
With `GAAGTATATTGGCACCTGAGCAAATCCAACAAATAG` the fluorescence intensity was 845 a.u.
`GAACTCTTATTTAGTAACGTGGTTTATTAACTCTAG` gave a fluorescence intensity of 1210 a.u.
`CTATCTATAATAGGTGGTGCCTTCTTGCTTCTTTTC` gave a fluorescence intensity of 495 a.u.
For `CTAGGGAACACCTTACGCGTGAGCTGTGCCCACTTC`, the fluorescence intensity was 479 a.u.
`CTATTTCGCCATAGCCATGTGCCTATATTAAATTTC` gave a fluorescence intensity of 775 a.u.
`GAATTTATTCCTTATCAGTTGATTTGGATGATATAG` gave a fluorescence intensity of 562 a.u.
`CTAAGAGTTTCTCATCACCATCCCCATATCATTTTC` has a fluorescence intensity of 545 a.u.
`TGTACGAAGCTATCAGCGGTGACTATAGTAGTTAGG` has a fluorescence intensity of 491 a.u.
With `CTATGTTAATTGTATGGCGTGTGGCCTTTCTATTTC` the fluorescence intensity was 545 a.u.
For `GAATGGTTGTGATACAGCCACATGAACAGATTCTAG`, the fluorescence intensity was 632 a.u.
`CTAGCGGCTGGTTGACTAGTCACAAGAAACAGATTC` has a fluorescence intensity of 543 a.u.
`GAATGGAAATGCGCAGGTGAGCTGATTGATTAATAG` gave a fluorescence intensity of 632 a.u.
The fluorescence intensity of `CTAAACTACAGCTTCCATGTGAGCTTAAAACGATTC` is reported as 622 a.u.
`CTAACTATGGGTGCAGGTGAGGCGGTTTTTTAATTC` gave a fluorescence intensity of 531 a.u.

Block 3 — target: human cyclin A2; observed: peptide binding; technique: competitive growth sequencing; molecule type: peptide; organism: Saccharomyces cerevisiae; strain: cyclin A2-Cln2 fusion strain; tested at: concentration not given; notes: peptide tiling library; reference: unfused Cln2 strain; reading: direction not given
With `ALLRRLQDVANDRGSH` the binding score was 0.683.
The binding score of `RRRRLLFWDKETQI` is reported as 1.56.
`RTSACASAFGPVDHEE` gave a binding score of -0.376.
`VEEEFFALRKRTPSAG` has a binding score of 0.66.
With `EAAPPTQEAQGETEPT` the binding score was 0.825.
`VSRNLRSSLKSSLHTL` has a binding score of 1.01.
For `EHCRVLFLDHVMYTIH`, the binding score was 0.258.
For `CFRCLLFSFSGRSGVE`, the binding score was 0.683.
For `EVTKVRRNLFNQELLS`, the binding score was 1.7.
The binding score of `ISRLFPPRTPGWHQLQ` is reported as 1.11.
`RSLKLDGLLEEN` has a binding score of 1.13.
`RTEALEQGGLPKKLIF` gave a binding score of 0.685.
The binding score of `KVRRNLFNQELLSP` is reported as 2.17.
With `LRRKLFLDGNGSIS` the binding score was 0.643.
`NCKKRRALDFLSRLPL` gave a binding score of 0.302.
For `YLYLLLTQSLWCRV`, the binding score was 1.04.
For `QYQVVDDIVSKLVFDF`, the binding score was 0.0658.
With `NLEPNAEFDKRTEFIT` the binding score was 0.469.
For `SFLIEYEFLIPPSLKP`, the binding score was 0.231.
The binding score of `NVVSADDAIQFTRVSS` is reported as -0.183.
`GLPDFVFQQQPVESEA` has a binding score of 0.49.
`RDLFDCDFGDLTPLDF` gave a binding score of 0.0912.

Block 4 — technique: RNA Bind-n-Seq; molecule type: RNA; sample: in vitro; tested at: 365 nM; reference: no-protein control; reading: higher = stronger binding
Target: RNA binding protein fox-1 homolog 2, RRM domain, GST-SBP tag (RBFOX2, Homo sapiens, UniProt O43251-10, residues 100-194)
Notes: natural RNA segment, single round, ends assumed
Constant ends, left off below: GGGAGUUCUACAGUCCGACGAUC … UGGAAUUCUCGGGUGCCAA
Construct (chain): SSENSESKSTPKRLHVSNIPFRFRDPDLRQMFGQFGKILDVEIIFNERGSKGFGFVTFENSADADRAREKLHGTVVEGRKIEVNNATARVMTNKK
`UUGCUGCAGGGCAGGAUGCCCACUGUCAGCUCCUGCGCUUCCAGGCACAUCAACAGCAGGGCAACAAGGCAGAGAAGGCCGGUUCCAAGGAGCAGGGGCCUCGACAAAGG` — result for “RBNS enrichment (R)”: 0.352.
`GUAUUUAGAAAAGUCUUAAGUAUUGUGCUUUGUAAAGAAGAUGAUUAAAAUGAAAUUUUGUGAGAAUGUUUUGUUCAAAGUUGUCAUGGUCCAAGAGGAAUGAUUUUUUU` — result for “RBNS enrichment (R)”: 1.71.
For `AUCGCUCCAGGAGUCUACGCUGUCGUGGAAAUUGUGCCCACCCCCAUCUGUGUGUUGUAGCCACUCACUGUUCACAUCGAGUGUCUCUAGUAACUGCCUCUGGACUCGGA`, “RBNS enrichment (R)” read 0.327.
For `UACACUCCCCAAAACACCCCUUUCCAGUUACAAUUAGCAUCGUGAUCCAAGCAGAUGCCACAUGGAAGAGGAAUCGCCAUUUACUCAGAAAAAAUGUCCCUUACAGGAAC`, “RBNS enrichment (R)” read 0.207.
Under “RBNS enrichment (R)”, `UCUAUAAGGAUGAACAAAAGGUCUUUGAAAGUUUAUGCUUAAAAUUUAGGUGUGGGCUGAUUGGACUCCAACAUCUUUUGUACUCUUUUCAUGCUUUAUGUUAUGUAGAA` is recorded as 0.984.
`CACGUGGUAGGCUCCACACUGGGCCUCACAUGGAAUGGUUUCCUGCUCAGAUCCAGUCCACGGGUCCAAGGAUGCUGGAUCCAAGGACUUCUCUUCCACAGUGGCCGGCC`: “RBNS enrichment (R)” 0.348.
`AUUGGACAGAUUUUAGGAGCAUGAUGUUUGCCUCCUCCGAGAGAGAGGAGUCAGAGAGAGAGAGGAGUCAGAAGGUGGCCGGAGUUAUCAUUGGGUCCCCUGAGCUCCAU` — result for “RBNS enrichment (R)”: 5.43.
`CACAGAUGUGAGCUACAGUUCGUUUCUGAAAGCUACCACAAGCUGGAAACUGGUGAUCAGUGUGGGGCUCACCUCUCCGUGGGUUAAAAAUGGUUUUAAAUGACACUGUA` — result for “RBNS enrichment (R)”: 0.437.
`GUCUGGAAGCGUAUGGAAUCAGAAAUAAUCCUCAGUGUAAAAUGUCUUGUGAUUUUUCUCUGUGAAUCCGUGGGUCUGGCUAGAAGGCCCAAUGCUGUAAAUAUGGGGAU`: “RBNS enrichment (R)” 2.3.
`GUCCCACAACACUGCCAAAAAUCUGUGUAUGUGCCAUUGGGUGGGGCAGCCCCAAGCCUCCUGGGGAGGCAGGGCAAAAACAGGUGCCCUCAUCGUGGUCUGUGCCAUGU`: “RBNS enrichment (R)” 1.53.
For `CAUGCCUUCUUCAGUGGCUGAGGGAUGACAAGCAGGACUUCCUGAGAGUCAGUCUGAAGAGAACACAGCCCUGGAGCCCCCCGGCCUCCGGGAAGAAGGAGAAGGAGAUG`, “RBNS enrichment (R)” read 0.396.
For `CAUAUCCUACACAGAAAAAUACUUUUAGACUUAUAUUGCCAAGCCAAAGUUACCAUAUUUUGGUGUUUUUGUGUUUUCUCUUUAUAAGGCAAAAAGAUCUGUAUUUACAC`, “RBNS enrichment (R)” read 0.352.

Single results of other studies
For `PhoQ, residues 284 288 289 292 302 303 GNNTDL`, the fold induction was 2.19 (PhoP, residues 12 14 15 18 19 NYFTV (Escherichia coli, UniProt P23836); Sort-seq, refers to: YFP reporter; E. coli; PhoQ-PhoP variant library, added: 10 µM Mg2+; reference: high Mg2+ state, higher = stronger signaling).
